Measurements gathered from unrelated publications.
Lines come from different studies, so protocols differ. “And” joins repeats or separate records; there may be more than shown. Numbers after ± are the reported error.
rep main protease: Replicase polyprotein 1ab, main protease (rep, Severe acute respiratory syndrome coronavirus 2, UniProt P0DTD1)
Spike glycoprotein: Spike glycoprotein (Severe acute respiratory syndrome coronavirus 2, UniProt P0DTC2)

CC1=C2CC(C(=O)N[C@@H]3CN(C(=O)c4ccc5ccnn5c4)Cc4nccn4C3)=CN=C2NN1  inhibition (rep main protease; enzyme activity, inhibitor; 5 µM): 11.2%
CO[C@H]1[C@@H](O)[C@H](O[C@@H]2[C@@H](C)O[C@@H](O[C@H]3CC[C@@]4(C)[C@@H](CC[C@@]56O[C@@]57CC[C@@H](C(C)=O)[C@@]7(C)[C@H](OC(C)=O)[C@@H](OC(=O)c5ccccc5)[C@H]46)C3)C[C@H]2OC)O[C@H](C)[C@H]1O  koff (Spike glycoprotein; binding, biolayer interferometry): 1.42 s⁻¹
O=C(NC[C@H]1CN(c2ccc(N3CCOCC3=O)cc2)C(=O)O1)c1ccc(Cl)s1  inhibition (rep main protease; reporter gene (mKate2), inhibitor; 20 µM): -0.0674%
CC[C@H](C)[C@H](NC(=O)[C@@H]1CCCN1C(=O)[C@H](C)NC(=O)[C@@H]1CSSC[C@@H]2NC(=O)[C@H](CC(=O)O)NC(=O)[C@H](CCCNC(=N)N)NC(=O)[C@H](CCC(=O)O)NC(=O)[C@H](CCCNC(=N)N)NC(=O)CNC(=O)[C@H](CC(=O)O)NC(=O)[C@@H]3CSSC[C@H](NC(=O)[C@H](CCC(=O)O)NC(=O)[C@H](CC(C)C)NC(=O)CNC(=O)[C@H](C)NC(=O)[C@H](CSSC[C@H](NC(=O)[C@H](Cc4ccccc4)NC(=O)[C@@H](N)CO)C(=O)N[C@@H](CC(C)C)C(=O)N[C@@H](C(C)C)C(=O)N[C@@H](CCCCN)C(=O)N[C@@H](Cc4c[nH]c5ccccc45)C(=O)N[C@@H](CCCCN)C(=O)N[C@@H](CCC(N)=O)C(=O)N3)NC2=O)C(=O)N[C@@H](Cc2c[nH]c3ccccc23)C(=O)N[C@@H](CCCCN)C(=O)N[C@@H](CCCNC(=N)N)C(=O)N[C@@H](CO)C(=O)NCC(=O)N[C@@H](CC(N)=O)C(=O)N[C@@H](CCCCN)C(=O)N[C@@H](CO)C(=O)N[C@@H](CO)C(=O)N[C@@H](C(C)C)C(=O)N1)C(=O)N[C@H](C(=O)O)[C@@H](C)O  deactivation fold change (ASIC1 (Homo sapiens, UniProt P78348, F352A); outside-out patch clamp; HEK-293T ASIC1a knockout; 1 µM, F352A mutant; relative to: before toxin): 1 ± 0.1 fold
O=C(N1CCC2(CC1)C[C@H](CN1CCCCS1(=O)=O)CCO2)C1(c2ccccc2)CCCC1  potency ratio (Polyprotein P1234, nsP2 (Chikungunya virus, UniProt Q8JUX6); RNA strand separation, inhibitor, FRET; relative to: compound over (S)-enantiomer, higher = more potent than (S)): 200 fold
Nc1ccc2cc3ccc(N)cc3nc2c1  inhibition (rep main protease; reporter gene (mKate2), inhibitor; HEK293T; 20 µM): -0.49%
O=C(NC[C@H](NC(=O)c1cn[nH]c1-c1ccccn1)c1ccc2ccccc2c1)c1cn[nH]c1  inhibition (rep main protease; enzyme activity; 5 µM, mean of runs): 10.9%
CCc1c(C(=O)C(N)=O)c2c(OCC(=O)O)cccc2n1Cc1ccccc1  remaining activity (Daboia russelii venom phospholipase A2; enzyme activity, inhibitor; MH population; 0.01 µM, with: NOB substrate; relative to: venom alone): 92.3% and 92.5% and 94%
Nc1cc(OCc2ccc(S(=O)(=O)F)cc2)ccn1  kinact (cya (Bacillus anthracis, UniProt P40136)): 0.0033 s⁻¹
CC(C)=CCC[C@](C)(O[C@@H]1O[C@H](CO)[C@@H](O)[C@H](O)[C@H]1O)[C@H]1CC[C@]2(C)[C@@H]1[C@H](O)C[C@@H]1[C@@]3(C)CC[C@H](O[C@@H]4O[C@H](CO)[C@@H](O)[C@H](O)[C@H]4O)C(C)(C)[C@@H]3CC[C@]12C  kon (Spike glycoprotein; binding, BLI): 18600 M⁻¹ s⁻¹
Cl.Clc1ccc(Cn2c(CN3CCCC3)nc3ccccc32)cc1  inhibition (rep main protease; reporter gene (Gaussia luciferase), inhibitor; 20 µM): 0.64%
Cc1cc(=O)[nH]cc1C(=O)N1C[C@@]23CCCC[C@@]2(CN(C(=O)C[C@H]2NC(=O)NC2=O)C3)C1  inhibition (rep main protease; enzyme activity, inhibitor; 5 µM, mean of runs): 11.3%
COC(=O)c1c(NC(=O)c2cc3ccccc3o2)sc(C)c1C  Hill slope (Replicase polyprotein 1ab, nsp14 N7-methyltransferase (rep, Severe acute respiratory syndrome coronavirus 2, UniProt P0DTD1); N7-methyltransferase activity, inhibitor, Py-FLINT): 1.49 ± 0.19
Cc1ccc(C)c(C(=O)N2CC[C@@H]([C@@H]3CCCN(C(=O)c4cccc5oc(=O)[nH]c45)C3)C2)c1  inhibition (rep main protease; enzyme activity, inhibitor; 5 µM, mean of runs): 12.3%
CC(C)C[C@@H](C=O)NC(=O)[C@H](CC(C)C)NC(=O)[C@H](CC(C)C)NC(=O)OCc1ccccc1  inhibition (rep main protease; reporter gene (Gaussia luciferase), inhibitor; 20 µM): -5.03%
COc1cc2c3cc1Oc1c(OC)c(OC)cc4c1[C@@H](Cc1ccc(O)c(c1)Oc1ccc(cc1)C[C@@H]3N(C)CC2)N(C)CC4  kon (Spike glycoprotein; binding, BLI): 89.8 M⁻¹ s⁻¹
Cc1conc1C(=O)N1Cc2ccccc2C[C@H]1CNC(=O)c1cccc2[nH]ncc12  inhibition (rep main protease; enzyme activity, inhibitor; 5 µM, mean of runs): 10.3%
O=C(/C=C/c1ccc(O)c(O)c1)OC[C@H]1O[C@@H](OCCc2ccc(O)c(O)c2)[C@H](O)[C@@H](O)[C@@H]1O  kon (Spike glycoprotein; binding): 317 M⁻¹ s⁻¹
O=C(NC[C@@H]1CC2(CCC2)CN1C(=O)c1ccc(F)c(O)c1)c1cncc2ccccc12  inhibition (rep main protease; enzyme activity, inhibitor; 5 µM, mean of runs): 26.9%
CC(C)(CC(=O)N1CCCC1)NCC(=O)N1C[C@@H](F)C[C@H]1C#N  inhibition (rep main protease; reporter gene (mKate2), inhibitor; 20 µM): -0.475%
Nc1cccc(-c2nsc(=O)o2)c1  kinact/KI (Proteasome subunit beta, open-gate 20S proteasome (prcB, Mycobacterium tuberculosis, UniProt P9WHT9); enzyme activity, inhibitor): 286 M⁻¹ s⁻¹
C[C@@H]1[C@H](O)[C@@H](C)/C=C/C=C/CC/C=C/C=C/C=C/C=C/C(O[C@H]2O[C@H](C)[C@@H](O)[C@H](N)[C@@H]2O)CC2O[C@](O)(CC(O)C(O)CCC(O)CC(O)CC(O)CC(=O)O[C@H]1C)CC(O)C2C(=O)O (stereo partly shown)  kon (Spike glycoprotein; binding, biolayer interferometry): 241 M⁻¹ s⁻¹
O=C(O)/C(S)=C/c1c[nH]c2ccc(F)cc12  inhibition (rep main protease; viral replication, Gluc reporter; SARS-CoV-2; 20 µM): 3.33%
C#Cc1cncc(C(=O)N2CCC3(CC2)CN(C(=O)[C@H]2CCC[C@@H]2O)Cc2ccccc2O3)c1  inhibition (rep main protease; enzyme activity, inhibitor; 5 µM, mean of runs): 10%
CC(C)[C@H](NC(=O)c1ccc2ccccc2n1)C(=O)N[C@@H](CC(=O)O)C(=O)COc1c(F)cccc1F  inhibition (rep main protease; reporter gene (Gaussia luciferase), inhibitor; 20 µM): 1.14%
COc1ccc(C[C@@H]2c3cc(Oc4cc(C[C@@H]5c6cc(O)c(OC)cc6CCN5C)ccc4O)c(OC)cc3CCN2C)cc1  koff (Spike glycoprotein; binding, BLI): 0.0311 s⁻¹
CC(C)(Oc1ccc(C(=O)c2ccc(Cl)cc2)cc1)C(=O)O  inhibition (rep main protease; reporter gene (Gaussia luciferase), inhibitor; 20 µM): 0.543%
O=C(c1ccc2cccnc2c1)N1CC[C@@H]([C@@H]2CCCN(C(=O)c3cccn4cnnc34)C2)C1  inhibition (rep main protease; enzyme activity, inhibitor; 5 µM, mean of runs): 11.1%

Repeated from above:
Cc1ccc(C)c(C(=O)N2CC[C@@H]([C@@H]3CCCN(C(=O)c4cccc5oc(=O)[nH]c45)C3)C2)c1  inhibition (rep main protease; enzyme activity, inhibitor; 5 µM, mean of runs): 12.3%
CC(C)C[C@@H](C=O)NC(=O)[C@H](CC(C)C)NC(=O)[C@H](CC(C)C)NC(=O)OCc1ccccc1  inhibition (rep main protease; reporter gene (Gaussia luciferase), inhibitor; 20 µM): -5.03%
COc1cc2c3cc1Oc1c(OC)c(OC)cc4c1[C@@H](Cc1ccc(O)c(c1)Oc1ccc(cc1)C[C@@H]3N(C)CC2)N(C)CC4  kon (Spike glycoprotein; binding, BLI): 89.8 M⁻¹ s⁻¹
